Measured values gathered from unrelated publications.
Each line is one published result; not all experiments were run side by side.
Target: Dual specificity protein kinase CLK4 (CLK4, Homo sapiens, UniProt Q9HAZ1)

`C=CC(=O)N1Cc2nc(-c3cc(-c4cc(Cl)cnc4Cl)c(F)cc3F)n(-c3ccncn3)c2C1` has an inhibition of 2.1% (cell-free assay, inhibitor; 1 µM).
With `COc1c(Cl)cccc1Nc1c(-c2ccncc2C#C[C@@]2(C)CCCN2C(=O)/C=C/CN(C)C)[nH]c2c1C(=O)NCC2` the remaining binding was 93% (binding, competition with immobilised ligand; 3 µM).
For `C=CC(=O)Nc1cccc(-c2cnc3[nH]cc(C(=O)NC(C)(C)C)c3n2)c1`, the inhibition was 81% (kinase activity; 0.1 µM).
`CCN1CCN(Cc2ccc(C(=O)Nc3ccc(C)c(NCc4cnc5[nH]ccc5c4OC)c3)cc2C(F)(F)F)CC1` gave a remaining binding of 86% (binding, competition with immobilised ligand; 1 µM).
With `Cc1cnc2nc1Nc1cccc(c1)COC/C=C/COCc1cc(ccc1OCCN1CCOCC1)N2` the remaining binding was 97% (binding; 0.1 µM).
The inhibition of `CN1CCN(Cc2ccc(-c3ccc(CO[C@H]4CCC[C@@H]4NC(=O)c4cc(-c5cnn(C)c5)cnc4N)cc3)cc2)CC1` is reported as -2% (enzyme activity, inhibitor; 0.1 µM).
With `COc1cc(Nc2nccc(-c3cnn4nc(OC)ccc34)n2)cc(C(F)(F)F)c1` the remaining binding was 13% (binding, competition with immobilised ligand; 1 µM).
`Cc1cccc(O[C@H]2CCC[C@@H](C(C)CNCc3ccncc3)C2)c1` (relative stereo) has an inhibition of 2% (enzyme activity, inhibitor; 1 µM).
The inhibition of `NC(=O)C[C@H]1CCc2sc3ncnc(O[C@H]4CC[C@H](N5CCOCC5)CC4)c3c21` is reported as 64% (enzyme activity, inhibitor; 10 µM).
For `Nc1ncc(-c2cc(-c3cnn(CC(F)(F)F)c3)ncc2F)nc1C(=O)NC1CNCC(F)C1` (stereo not drawn), the remaining activity was 64% (enzyme activity; 1 µM; relative to: DMSO control).
The remaining binding of `Cc1ccc(-c2c(/C=C(\C#N)C(=O)NC(C)C)n(CCCO)c3ncnc(N)c23)cc1` is reported as 100% (cell-free assay, competition with immobilised ligand; 1 µM).
For `CNC(=O)C[C@H](Cc1ccc(C#N)cc1)NC(=O)c1cc(-c2ccc(CN[C@H](C)c3ccc(C)cc3)o2)ccc1Cl`, “activity vs control” read 96% (enzyme activity, inhibitor; 1 µM).

For quick reference, copied from above:
For `CNC(=O)C[C@H](Cc1ccc(C#N)cc1)NC(=O)c1cc(-c2ccc(CN[C@H](C)c3ccc(C)cc3)o2)ccc1Cl`, “activity vs control” read 96% (enzyme activity, inhibitor; 1 µM).
The inhibition of `NC(=O)C[C@H]1CCc2sc3ncnc(O[C@H]4CC[C@H](N5CCOCC5)CC4)c3c21` is reported as 64% (enzyme activity, inhibitor; 10 µM).
